# Published values from different studies.
# Each numbered part is a random draw from the data of one study; scales do not carry over between parts.

# Block 1
# Target: Histone acetyltransferase KAT6A, winged helix 2, GST fusion (KAT6A, Homo sapiens, UniProt Q92794, residues 85-181)
# Method: protein binding microarray
# Form: double-stranded DNA, one strand shown
# Medium: in vitro
# Concentration: not given
# Setting: 8-mer, flanks averaged, mean of 2 arrays, mostly near background
# Baseline: not given
# Reading: higher = stronger binding
# Construct (chain): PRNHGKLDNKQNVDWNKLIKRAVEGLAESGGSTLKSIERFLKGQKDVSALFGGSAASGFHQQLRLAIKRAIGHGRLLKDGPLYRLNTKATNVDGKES
Strand,E-score
ACACCTAT,-0.134
CCCATAAC,-0.0606
CAGAGCTC,0.0464
CGTGCCGA,0.0534
GACTGAAA,0.0833
GGGACCAA,0.0407
CTTTGTGA,0.0516
CCACGCTA,-0.135
AACACGTG,-0.202
ATACAGAG,-0.0748
GTGAATGA,-0.0973
ATGTACGA,-0.27
TCACAGAA,0.00134
AATGATCT,0.0659
AAGTTTAG,0.146
ACACTTTC,-0.0972
ATGCTTGA,0.108
GCCACGGC,0.133
CGCAGGTA,0.0852
ATCGCTAC,-0.19
AAGAGAAA,0.0423
CGTTCCAA,-0.0345
CATATTAC,-0.0257
TCTGTACA,-0.0992
CGCGACCG,0.317

# Block 2
# Target: Sal-like protein 4, full length isoform A (SALL4, Homo sapiens, UniProt Q9UJQ4, residues 1-1053)
# Sequence of UniProt Q9UJQ4 (whole entry, looked up): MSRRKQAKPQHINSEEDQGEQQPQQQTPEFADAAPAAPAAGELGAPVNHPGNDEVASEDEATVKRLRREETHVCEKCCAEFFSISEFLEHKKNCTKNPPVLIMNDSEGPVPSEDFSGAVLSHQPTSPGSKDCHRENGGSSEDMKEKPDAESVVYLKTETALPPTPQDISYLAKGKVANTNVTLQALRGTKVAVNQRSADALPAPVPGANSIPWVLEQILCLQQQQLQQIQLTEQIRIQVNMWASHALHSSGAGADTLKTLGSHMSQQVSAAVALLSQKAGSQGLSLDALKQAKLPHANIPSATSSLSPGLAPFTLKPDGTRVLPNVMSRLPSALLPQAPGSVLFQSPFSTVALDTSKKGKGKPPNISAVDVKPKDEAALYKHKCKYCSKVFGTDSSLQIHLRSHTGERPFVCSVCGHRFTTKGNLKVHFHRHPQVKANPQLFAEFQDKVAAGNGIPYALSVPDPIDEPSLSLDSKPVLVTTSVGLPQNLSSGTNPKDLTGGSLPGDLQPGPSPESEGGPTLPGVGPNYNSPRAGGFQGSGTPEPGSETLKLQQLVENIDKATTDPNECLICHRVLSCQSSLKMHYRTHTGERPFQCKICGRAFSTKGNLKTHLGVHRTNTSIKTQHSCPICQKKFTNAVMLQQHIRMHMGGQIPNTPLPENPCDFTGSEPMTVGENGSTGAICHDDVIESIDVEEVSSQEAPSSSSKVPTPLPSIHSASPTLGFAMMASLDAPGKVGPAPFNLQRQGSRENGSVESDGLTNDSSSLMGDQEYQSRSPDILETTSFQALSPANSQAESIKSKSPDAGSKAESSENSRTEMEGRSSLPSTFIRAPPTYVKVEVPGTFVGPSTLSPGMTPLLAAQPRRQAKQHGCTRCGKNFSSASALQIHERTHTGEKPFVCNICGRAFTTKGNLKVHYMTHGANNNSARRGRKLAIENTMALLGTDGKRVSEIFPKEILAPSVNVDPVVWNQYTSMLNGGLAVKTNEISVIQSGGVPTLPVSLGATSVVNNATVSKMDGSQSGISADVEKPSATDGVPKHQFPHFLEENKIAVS
# Method: universal PBM
# Form: double-stranded DNA, one strand shown
# Medium: in vitro
# Concentration: 600 nM
# Setting: 8-mer, flanks averaged, mean of replicates
# Reading: higher = stronger binding
Strand,E-score
CCGCCCAA,-0.238
AACCTTCC,-0.108
AGTAGAGC,0.00314
CGAGGGCA,-0.153
CGAGCGTA,0.0413
CACCGTAA,0.0143
CACTATGC,0.108
TAACCCTA,0.0194
AGAGCTTC,-0.171
CTATAAGA,0.158
CGCAGGTC,-0.317
CCTTACGA,-0.0187
CCCTTCAC,-0.103
GCGTAAGC,-0.203
ACAAGCCA,-0.0377
GTCTCTGA,-0.162
CCCCCTGC,-0.308
AAACAGGA,0.0962
GGCTCATA,0.111
AGCCTCCA,-0.18
TTATCGAA,0.251
AGGGTTTG,-0.0612
GGTCACGA,-0.186
ACCAACCG,-0.202

# Block 3
# Target: Fragile X messenger ribonucleoprotein 1, C-terminal low-complexity region (Fmr1, Mus musculus, UniProt P35922)
# Method: RNA Bind-n-Seq
# Form: RNA
# Medium: in vitro
# Concentration: 200 nM
# Setting: whole 134-nt RNA, ends assumed
# Added: 150 mM KCl
# Baseline: input library
# Reading: higher = stronger binding
# All sequences stand within: GGGAGUUCUACAGUCCGACGAUC … UGGAAUUCUCGGGUGUCAAGG
Strand,log2 enrichment
AGUCCUGUGCUACACAUCGUAUGUACCGAAUCGGGGUUUGGGGUGGGGAAAAAGGGGAAAGUAUUAUGUUACGCCGUUCGGAUCUGCACU,0.651
CCUGUGCUACACAUCGUAUGUACCGAAUCGGAAAAAAGGGGAAAAAAGGGGAAAAAAGGGGAAAGUAUUAUGUUACGCCGUUCGGAUCUG,-0.649
CAAGUCCUGUGCUACACAUCGUAUGUACCGAAUCGGGUGGGUUUGGGUUUUUGGGAAAGUAUUAUGUUACGCCGUUCGGAUCUGCACUUC,1.02
ACCAUGCAGGUGGGCAUCUUUGGGAAGUGGGGCAAGGGGGGGAUAGGGAGGGGGGUAGCACUUUGGGAACAGGUGGUCCCAGGUCGUUUC,0.616
UAACUUUAGAGGAGGGUCUGAUGGAUAUGGCAGUGGACGUGGAUUUGGGGAUGGCUAUAAUGGGUAUGGAGGAGGACCUGGAGGUGGCAA,0.26
CAAGUCCUGUGCUACACAUCGUAUGUACCGAAUCGGUUUUGGGUUUUGGUUUUGGAAAGUAUUAUGUUACGCCGUUCGGAUCUGCACUUC,-0.633
CUCAAGUCCUGUGCUACACAUCGUAUGUACCGAAUCGGAAAAAGGAGGAAAGGAAAGUAUUAUGUUACGCCGUUCGGAUCUGCACUUCCA,-0.277
ACCAUGCAGUUGGGCAUCUUUGGGAAGUGGGGCAAGGGGGGGAUAGGGAGGGGGGUAACACUUUGGGAACAGGUGGUCCCAGGUCGUUUC,0.893
CCUGUGCUACACAUCGUAUGUACCGAAUCGGGUUUUUUUGGUUUUUUUGGUUUUUUUGGGAAAGUAUUAUGUUACGCCGUUCGGAUCUGC,-0.663
UAACUUUAGAGGAGGAUCUGAUGGAUAUGGCAGUGGACGUGGAUUUGGGAAUGGCUAUAAUGGGUAUGGAGGAGGACCUGGAGGUGGCAA,0.244
AGUCCUGUGCUACACAUCGUAUGUACCGAAUCGGGAAAAAGGGGAAAAAGGAAAAAGGAAAGUAUUAUGUUACGCCGUUCGGAUCUGCAC,-0.268
UAACUUUAGAGGAGGAUCUGAUGGAUAUGGCAGUGGACGUGGAUUUGGGGAUGGCUAUAAUGGGUAUGGAGGAGGACCUGGAGGGGGCAA,0.143
AAGUCCUGUGCUACACAUCGUAUGUACCGAAUCGGGGAAAGGGGAAAGGGAAAGGGGAAAGUAUUAUGUUACGCCGUUCGGAUCUGCACU,0.16
AAGUCCUGUGCUACACAUCGUAUGUACCGAAUCGGGAAAGGGUUUUUGGGAAAGGGAAAGUAUUAUGUUACGCCGUUCGGAUCUGCACUU,0.399

# Block 4
# Target: Interferon regulatory factor 5, full length, phosphomimetic (IRF5, Homo sapiens, UniProt Q13568-2, residues 1-514, S451D/S453D/S456D/S462D)
# Method: protein-binding microarray
# Form: double-stranded DNA, one strand shown
# Medium: in vitro
# Concentration: 940 nM top
# Setting: 60-bp whole probe
# Added: salmon DNA 0.4 mg/ml
# Baseline: random background probes
# Reading: higher = stronger binding
# All sequences stand within: GCCTAGCAC … GTCTTGATTCGCTTGACGCTGCTG
Strand,fitted relative affinity [z-score]
AACCATTTTGGTTTTCTCTAGTGCTAG,0.345
CATTCTCTGTTTATGTCTGGGTGCTAG,5.19
CTAGATTTCGGGTATCGATTAGTGCTA,3.43
TTAGATATCAGTATCAATTAGTGCTAG,1.33
GACGGTTTCGACACTCGGGACGTGCTA,6.93
CCTGGTTTTACTTTCTATCTGTGCTAG,2.29
GACGATTTCGGTCTCGAGACGTGCTAG,2.65
GACGGCTTCGGGTTTCGGGACGTGCTA,2.1
TTAGATCTGAGTATCGATTAGTGCTAG,4.06

# Block 5
# Target: RNA binding protein fox-1 homolog 2, RRM domain, GST-SBP tag (RBFOX2, Homo sapiens, UniProt O43251-10, residues 100-194)
# Method: RNA Bind-n-Seq
# Form: RNA
# Medium: in vitro
# Concentration: 365 nM
# Setting: natural RNA segment, single round, ends assumed
# Baseline: no-protein control
# Reading: higher = stronger binding
# All sequences stand within: GGGAGUUCUACAGUCCGACGAUC … UGGAAUUCUCGGGUGCCAA
# Residues (chain): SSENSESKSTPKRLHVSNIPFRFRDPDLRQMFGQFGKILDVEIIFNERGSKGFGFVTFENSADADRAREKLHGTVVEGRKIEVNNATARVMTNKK
Strand,RBNS enrichment (R)
GGUAUAGAAUCAUAUUUGGUGUUUGCCUGUAAGACAACUAGGGGAGCCCUUUAAGGAAAAGAUCAGUGUCCUGCACCCCUGGGGCAAAUGACAAGGGUAUUAUCAUGGAG,0.299
UGGUACCUGAUACCUGUUGGAGAUUAUGUGACUGCUGGCAUGUCUUAGAUAUCUUAGUUAUCUUUUGUUGACAGAUGAAUGGGAAUUAACAAUAGCUUUAUGUCUUUGUG,1.87
CAUUCAAAGGUUCUUGAGACUCUUGAUAUUUCUGUCUUCUCCUUGUGCUUUCCUAUGGAAAAAAUACAUAUAUAGUUUAGUUUGUUAGACGUGAGUUAUCCAAGUAUUUA,0.488
CAUUUGUAAAACCACCAGCAUCAGGAGUAAGGGGGAGGCCAGAGGGCUCAGAUGGACACAGAAUUCUAGCUUUACCUGCAUCCGCUGAUUCAGUUUUCUGUUGGGAUCAG,2.28
CUGAGAAUCAUGACAGACCCUCUGCCAGUCUCUAGUUUCUCUGGGUCAGGUUUCUGAGUACUGGCAUUGGAUUUUAAGCGGCAUGUGACCCUUUGUGUUUUAGUGACUCA,1.98
AGACAGCAGAGUUGCUCCAAGUAUAAAUGUGACUUAGGCUCCCUCCAGCACACAGUGUGUAUGUUGGAGGGAGUGUGGAUUAGCAGAGAAUGAGAACUACCUCAGCUAUU,0.463
UUCAGUAUGUGUAACUUGAAGCUAAUUUGUACUACUGGAUAUCUGACUGGAGCCACAGAUACAGAAUCUGUAUUGUUCUUACUGAAACACAGCAUGGAAUUAACAUUAAA,0.806
UGCCUACAGCCCUGUUACCUGAUACCUGUGCUUUAUCCCAGGGGUGGGCAGACCUCUUAACCUUAUAGAUGGUCAGUGCGACCUCUAGUGGUCUCAUGGCGUGUGGCACA,0.454
GUGUUGACCUGCGUUACUGGAACUUGGAGCUACCCUGUUUGGUUACCAGUGGACUGUUAGAAAGUAUUUCAGAUACGAGCAUCUUACAGGGCAUUCCAUCCCUAGUUCUC,0.84
UUCAAACCAUCCCGGUGGCUGGGAUGCAAGCUCAAGUUUGAGAACCACUGGUUUUGUCCUGGUGUUUCCAGCACCAGAAUCCCAGCUUGGUGAGGUUUGAAGUUUCAGUG,0.473
ACUGUUACAUGAAAUAAGCCCCUACCUUCUUACUUUCUGGUUUGUUGAAAAAAUACACUGGUGCUCUUUGAAGUGAUAAAAUGAGUGUUUAUGAAUGGGUGUAAUUAGGA,0.312
UGUGACCACAUCAGGGCCUUGAAUCUUUGUACCUGACAGACCUGGGACCUGGAGUUCGGGCAGAUGUGACAUCAAUAAAACUGCGUCUCACAUUUUAACCAUGUUUUCUG,0.303

# Other studies, line by line
# Organism: Saccharomyces cerevisiae
# Effect on: binding
# Method: competitive growth deep sequencing
# Form: peptide
# Concentration: concentration not given
# Reading: direction not given
Sequence,strain,setting,growth enrichment score
REPARRLFLFGEE,cyclin E1-Cln2 fusion strain,Cln2 score subtracted,0.324
EPKTLFLGAGDFQF,cyclin D3-Cln2 fusion strain,"tiling library, Cln2 subtracted",0.793
SNARRSLNFGGST,cyclin D3-Cln2 fusion strain,RxL motif peptides,0.279

# A few entries again (block 3):
Strand,log2 enrichment
AAGUCCUGUGCUACACAUCGUAUGUACCGAAUCGGGAAAGGGUUUUUGGGAAAGGGAAAGUAUUAUGUUACGCCGUUCGGAUCUGCACUU,0.399
CAAGUCCUGUGCUACACAUCGUAUGUACCGAAUCGGGUGGGUUUGGGUUUUUGGGAAAGUAUUAUGUUACGCCGUUCGGAUCUGCACUUC,1.02
AAGUCCUGUGCUACACAUCGUAUGUACCGAAUCGGGGAAAGGGGAAAGGGAAAGGGGAAAGUAUUAUGUUACGCCGUUCGGAUCUGCACU,0.16
CCUGUGCUACACAUCGUAUGUACCGAAUCGGAAAAAAGGGGAAAAAAGGGGAAAAAAGGGGAAAGUAUUAUGUUACGCCGUUCGGAUCUG,-0.649
AGUCCUGUGCUACACAUCGUAUGUACCGAAUCGGGAAAAAGGGGAAAAAGGAAAAAGGAAAGUAUUAUGUUACGCCGUUCGGAUCUGCAC,-0.268
ACCAUGCAGUUGGGCAUCUUUGGGAAGUGGGGCAAGGGGGGGAUAGGGAGGGGGGUAACACUUUGGGAACAGGUGGUCCCAGGUCGUUUC,0.893
UAACUUUAGAGGAGGAUCUGAUGGAUAUGGCAGUGGACGUGGAUUUGGGGAUGGCUAUAAUGGGUAUGGAGGAGGACCUGGAGGGGGCAA,0.143
CUCAAGUCCUGUGCUACACAUCGUAUGUACCGAAUCGGAAAAAGGAGGAAAGGAAAGUAUUAUGUUACGCCGUUCGGAUCUGCACUUCCA,-0.277
CAAGUCCUGUGCUACACAUCGUAUGUACCGAAUCGGUUUUGGGUUUUGGUUUUGGAAAGUAUUAUGUUACGCCGUUCGGAUCUGCACUUC,-0.633
ACCAUGCAGGUGGGCAUCUUUGGGAAGUGGGGCAAGGGGGGGAUAGGGAGGGGGGUAGCACUUUGGGAACAGGUGGUCCCAGGUCGUUUC,0.616
CCUGUGCUACACAUCGUAUGUACCGAAUCGGGUUUUUUUGGUUUUUUUGGUUUUUUUGGGAAAGUAUUAUGUUACGCCGUUCGGAUCUGC,-0.663
UAACUUUAGAGGAGGGUCUGAUGGAUAUGGCAGUGGACGUGGAUUUGGGGAUGGCUAUAAUGGGUAUGGAGGAGGACCUGGAGGUGGCAA,0.26
AGUCCUGUGCUACACAUCGUAUGUACCGAAUCGGGGUUUGGGGUGGGGAAAAAGGGGAAAGUAUUAUGUUACGCCGUUCGGAUCUGCACU,0.651
UAACUUUAGAGGAGGAUCUGAUGGAUAUGGCAGUGGACGUGGAUUUGGGAAUGGCUAUAAUGGGUAUGGAGGAGGACCUGGAGGUGGCAA,0.244
